Published values collected from several papers.
Several values in a cell are separate wells, animals, samples, runs or records. ± gives the spread as reported.
MPO: Myeloperoxidase (MPO, Homo sapiens, UniProt P05164)
Chain of UniProt P05164 (whole entry, looked up): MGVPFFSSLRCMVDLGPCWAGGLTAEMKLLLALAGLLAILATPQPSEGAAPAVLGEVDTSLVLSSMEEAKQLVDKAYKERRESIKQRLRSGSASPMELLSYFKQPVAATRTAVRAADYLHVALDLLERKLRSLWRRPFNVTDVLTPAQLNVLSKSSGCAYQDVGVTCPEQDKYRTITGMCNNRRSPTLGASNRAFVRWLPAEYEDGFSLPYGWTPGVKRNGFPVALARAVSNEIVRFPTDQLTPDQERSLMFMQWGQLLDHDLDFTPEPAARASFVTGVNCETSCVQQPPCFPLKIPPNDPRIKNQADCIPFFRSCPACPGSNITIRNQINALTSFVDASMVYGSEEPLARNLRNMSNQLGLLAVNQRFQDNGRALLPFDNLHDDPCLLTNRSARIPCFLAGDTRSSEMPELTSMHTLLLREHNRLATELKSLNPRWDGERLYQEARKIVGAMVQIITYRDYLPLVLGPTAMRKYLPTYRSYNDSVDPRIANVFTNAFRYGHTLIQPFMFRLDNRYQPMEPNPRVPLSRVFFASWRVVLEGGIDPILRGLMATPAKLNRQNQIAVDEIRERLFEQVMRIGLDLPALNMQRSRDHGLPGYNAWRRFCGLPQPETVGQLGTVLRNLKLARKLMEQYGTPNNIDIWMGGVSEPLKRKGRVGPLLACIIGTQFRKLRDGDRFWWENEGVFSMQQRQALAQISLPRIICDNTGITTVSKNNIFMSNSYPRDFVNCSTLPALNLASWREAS
OXSR1: Serine/threonine-protein kinase OSR1 (OXSR1, Homo sapiens, UniProt O95747)
Chain of UniProt O95747 (whole entry, looked up): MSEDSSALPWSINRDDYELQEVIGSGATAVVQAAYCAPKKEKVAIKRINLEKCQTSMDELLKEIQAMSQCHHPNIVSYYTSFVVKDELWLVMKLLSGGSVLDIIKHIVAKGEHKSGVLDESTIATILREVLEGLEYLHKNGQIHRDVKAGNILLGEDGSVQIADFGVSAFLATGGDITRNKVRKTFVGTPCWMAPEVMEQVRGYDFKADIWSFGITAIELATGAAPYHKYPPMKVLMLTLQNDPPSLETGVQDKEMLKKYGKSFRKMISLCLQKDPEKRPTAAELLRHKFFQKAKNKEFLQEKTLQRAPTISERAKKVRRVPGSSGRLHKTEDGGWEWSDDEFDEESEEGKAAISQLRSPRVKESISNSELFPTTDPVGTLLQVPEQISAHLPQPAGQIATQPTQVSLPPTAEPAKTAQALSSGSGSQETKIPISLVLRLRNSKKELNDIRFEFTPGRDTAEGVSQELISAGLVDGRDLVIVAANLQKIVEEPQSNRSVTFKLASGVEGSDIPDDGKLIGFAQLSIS
TGFBR1: TGF-beta receptor type-1 (TGFBR1, Homo sapiens, UniProt P36897)
Chain of UniProt P36897 (whole entry, looked up): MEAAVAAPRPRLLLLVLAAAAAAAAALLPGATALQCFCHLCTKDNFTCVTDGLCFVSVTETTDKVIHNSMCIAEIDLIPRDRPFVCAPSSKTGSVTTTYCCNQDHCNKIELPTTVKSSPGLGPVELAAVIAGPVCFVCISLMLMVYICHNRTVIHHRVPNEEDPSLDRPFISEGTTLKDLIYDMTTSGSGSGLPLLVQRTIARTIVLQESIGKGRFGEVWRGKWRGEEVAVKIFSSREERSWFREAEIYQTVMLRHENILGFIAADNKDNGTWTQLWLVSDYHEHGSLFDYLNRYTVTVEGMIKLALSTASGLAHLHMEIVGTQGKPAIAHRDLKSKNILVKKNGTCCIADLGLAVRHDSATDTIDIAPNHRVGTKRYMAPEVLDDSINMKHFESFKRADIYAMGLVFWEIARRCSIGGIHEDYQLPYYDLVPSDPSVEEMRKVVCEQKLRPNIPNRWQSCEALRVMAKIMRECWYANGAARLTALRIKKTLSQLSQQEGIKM
IKBKE: Inhibitor of nuclear factor kappa-B kinase subunit epsilon (IKBKE, Homo sapiens, UniProt Q14164)
Chain of UniProt Q14164 (whole entry, looked up): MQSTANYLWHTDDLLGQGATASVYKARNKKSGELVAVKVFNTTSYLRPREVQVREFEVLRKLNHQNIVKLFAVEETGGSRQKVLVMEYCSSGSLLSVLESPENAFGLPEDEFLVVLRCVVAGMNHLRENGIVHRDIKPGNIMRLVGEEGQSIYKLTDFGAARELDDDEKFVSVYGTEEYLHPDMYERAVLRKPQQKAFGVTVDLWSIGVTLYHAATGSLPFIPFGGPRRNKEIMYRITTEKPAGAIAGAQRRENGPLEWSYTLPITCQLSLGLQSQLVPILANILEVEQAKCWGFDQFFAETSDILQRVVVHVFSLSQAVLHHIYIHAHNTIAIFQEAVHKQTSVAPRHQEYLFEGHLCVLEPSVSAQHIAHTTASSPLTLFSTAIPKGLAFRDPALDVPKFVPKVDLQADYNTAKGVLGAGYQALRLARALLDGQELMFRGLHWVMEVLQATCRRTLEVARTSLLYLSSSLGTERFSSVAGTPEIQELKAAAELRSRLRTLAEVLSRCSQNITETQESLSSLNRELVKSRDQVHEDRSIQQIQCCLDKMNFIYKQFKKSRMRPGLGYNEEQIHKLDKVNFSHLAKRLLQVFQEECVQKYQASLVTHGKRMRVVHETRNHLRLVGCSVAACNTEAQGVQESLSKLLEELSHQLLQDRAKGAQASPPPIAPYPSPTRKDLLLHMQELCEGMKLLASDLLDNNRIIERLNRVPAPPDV
TRPM7: Transient receptor potential cation channel subfamily M member 7 (TRPM7, Homo sapiens, UniProt Q96QT4)
Chain of UniProt P11678 (whole entry, looked up): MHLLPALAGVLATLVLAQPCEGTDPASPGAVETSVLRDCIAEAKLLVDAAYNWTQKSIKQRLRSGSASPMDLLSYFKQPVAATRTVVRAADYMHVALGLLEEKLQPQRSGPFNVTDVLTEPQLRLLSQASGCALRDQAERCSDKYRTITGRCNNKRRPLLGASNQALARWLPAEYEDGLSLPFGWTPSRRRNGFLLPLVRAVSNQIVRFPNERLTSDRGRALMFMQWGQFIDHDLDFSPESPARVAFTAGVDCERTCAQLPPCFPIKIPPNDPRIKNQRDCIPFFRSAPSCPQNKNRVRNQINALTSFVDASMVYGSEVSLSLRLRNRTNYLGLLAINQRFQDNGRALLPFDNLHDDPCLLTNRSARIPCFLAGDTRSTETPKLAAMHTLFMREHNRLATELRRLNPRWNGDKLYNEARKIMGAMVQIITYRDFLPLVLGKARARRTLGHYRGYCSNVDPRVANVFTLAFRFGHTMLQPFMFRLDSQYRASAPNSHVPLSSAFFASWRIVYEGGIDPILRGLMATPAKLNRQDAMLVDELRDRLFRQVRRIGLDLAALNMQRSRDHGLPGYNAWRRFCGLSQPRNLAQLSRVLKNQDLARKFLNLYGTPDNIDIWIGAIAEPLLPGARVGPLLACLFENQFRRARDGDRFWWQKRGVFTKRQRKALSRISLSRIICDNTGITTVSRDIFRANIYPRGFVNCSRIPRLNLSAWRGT
Chain of UniProt Q96QT4 (whole entry, looked up): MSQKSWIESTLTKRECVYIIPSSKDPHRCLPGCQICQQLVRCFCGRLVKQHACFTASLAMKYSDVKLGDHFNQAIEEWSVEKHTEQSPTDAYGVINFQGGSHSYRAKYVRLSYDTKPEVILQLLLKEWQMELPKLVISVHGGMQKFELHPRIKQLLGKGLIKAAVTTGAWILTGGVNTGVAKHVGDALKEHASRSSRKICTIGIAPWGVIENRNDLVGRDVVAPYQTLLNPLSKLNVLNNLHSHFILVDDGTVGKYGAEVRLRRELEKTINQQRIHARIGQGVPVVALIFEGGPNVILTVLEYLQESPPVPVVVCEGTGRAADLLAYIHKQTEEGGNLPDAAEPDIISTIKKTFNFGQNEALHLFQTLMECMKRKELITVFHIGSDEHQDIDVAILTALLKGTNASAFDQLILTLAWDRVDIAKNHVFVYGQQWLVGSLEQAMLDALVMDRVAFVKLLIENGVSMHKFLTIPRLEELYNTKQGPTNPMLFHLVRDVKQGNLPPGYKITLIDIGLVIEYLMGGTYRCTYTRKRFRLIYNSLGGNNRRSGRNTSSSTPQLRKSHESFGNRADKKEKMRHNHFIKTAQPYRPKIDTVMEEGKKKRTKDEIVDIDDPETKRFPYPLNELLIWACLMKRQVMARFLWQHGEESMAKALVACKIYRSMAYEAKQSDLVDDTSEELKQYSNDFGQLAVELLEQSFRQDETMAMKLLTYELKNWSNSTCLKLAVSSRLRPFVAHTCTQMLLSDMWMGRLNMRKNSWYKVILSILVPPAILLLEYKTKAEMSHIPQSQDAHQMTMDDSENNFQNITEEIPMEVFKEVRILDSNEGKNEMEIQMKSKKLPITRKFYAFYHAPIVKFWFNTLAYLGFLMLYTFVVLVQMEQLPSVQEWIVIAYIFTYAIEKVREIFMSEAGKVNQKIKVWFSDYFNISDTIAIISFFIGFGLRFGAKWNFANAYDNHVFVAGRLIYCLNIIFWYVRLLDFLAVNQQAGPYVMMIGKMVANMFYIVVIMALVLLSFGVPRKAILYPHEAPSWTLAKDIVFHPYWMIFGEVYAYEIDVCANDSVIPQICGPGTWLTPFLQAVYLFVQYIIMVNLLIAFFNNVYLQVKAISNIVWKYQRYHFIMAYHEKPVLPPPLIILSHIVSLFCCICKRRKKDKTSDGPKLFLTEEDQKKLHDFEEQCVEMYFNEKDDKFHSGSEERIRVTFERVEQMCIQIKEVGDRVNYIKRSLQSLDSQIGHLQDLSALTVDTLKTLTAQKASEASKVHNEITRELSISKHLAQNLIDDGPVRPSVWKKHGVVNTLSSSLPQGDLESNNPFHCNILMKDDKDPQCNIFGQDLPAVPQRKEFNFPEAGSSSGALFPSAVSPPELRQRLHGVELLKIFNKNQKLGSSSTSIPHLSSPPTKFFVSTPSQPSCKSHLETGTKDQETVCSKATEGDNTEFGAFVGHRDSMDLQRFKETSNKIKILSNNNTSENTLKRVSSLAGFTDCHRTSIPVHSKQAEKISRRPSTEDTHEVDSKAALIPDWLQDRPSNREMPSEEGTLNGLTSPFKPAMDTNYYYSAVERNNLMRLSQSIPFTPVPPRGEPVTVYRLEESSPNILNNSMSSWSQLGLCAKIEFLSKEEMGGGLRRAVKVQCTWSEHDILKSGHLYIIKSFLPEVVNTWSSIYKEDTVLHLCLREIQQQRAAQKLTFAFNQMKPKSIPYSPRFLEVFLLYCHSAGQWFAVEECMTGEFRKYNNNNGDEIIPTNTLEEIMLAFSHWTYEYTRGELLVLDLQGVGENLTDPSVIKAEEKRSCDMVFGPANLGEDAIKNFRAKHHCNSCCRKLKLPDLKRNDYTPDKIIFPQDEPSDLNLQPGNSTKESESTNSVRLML

COc1ccc(Cl)cc1-c1cc(=O)[nH]c(=S)n1CC(N)=O  remaining activity (MPO; 2.5 µM, 0.1 h): 23.7%
CCN1CCN(Cc2ccc(NC(=O)c3ccc(C)c(/C=C/c4cnc5[nH]ccc5c4OC)c3)cc2C(F)(F)F)CC1  remaining activity (OXSR1; kinase activity; 1 µM): 100%
COc1cc(N2CCN(C)CC2)ccc1Nc1nc(N)n(C(=O)NCc2c(Cl)cccc2Cl)n1  remaining activity (JAK2 (Homo sapiens, UniProt O60674); enzyme activity; 10 µM; reference: control): 13%
C=CC(=O)N1CCC[C@@H](n2nc(-c3ccc(Oc4ccccc4)cc3)c3c(N)ncnc32)C1  remaining activity (FRK (Homo sapiens, UniProt P42685); 1 µM): 178%
Cc1cc(Nc2cc(N3CCN(C)CC3)nc(Sc3ccc(NC(=O)C4CC4)cc3)n2)[nH]n1  remaining activity (TGFBR1; kinase activity, KinaseProfiler; 0.03 µM, species human; reference: control): 101%
COc1cc(Nc2cnc(C#N)c(O[C@H](C)CN(C)C)n2)ncc1-c1cnn(C)c1  remaining activity (AMPK; radiometric; 10 µM): 14%
CC(C)(O)[C@H]1CC[C@H](Nc2ccc3ncc(-c4cccc(C(F)(F)F)c4)n3n2)CC1  remaining activity (cGMP-dependent protein kinase 1, isoform beta (PRKG1, Homo sapiens, UniProt Q13976); enzyme activity, inhibitor; 1 µM, added: 10 µM ATP; reference: DMSO): 101%
COc1ccc(F)cc1C(=O)NCc1ccc(-c2nn([C@@H](C)C(F)(F)F)c(N)c2C(N)=O)cc1  remaining activity (IKBKE; kinase activity, inhibitor, HotSpot radiometric; 1000 nM, added: ATP at Km): 97.6 ± 3%
O=C1NC(=O)/C(=C/c2ccc(-c3ccc(F)cc3O)o2)S1  remaining activity (CLK2 (Homo sapiens, UniProt P49760); enzyme activity; 10 µM): 16%
COc1cc(-c2cncc3c2CN(C)Cc2cc(N4CCNCC4)ccc2-3)cc(OC)c1OC  remaining activity (TRPM7; enzyme activity; 1 µM, added: 10 µM ATP; reference: DMSO): 107%
C1=C/COCc2cc(ccc2OCCN2CCCC2)Nc2nccc(n2)-c2cccc(c2)COC/1  remaining activity (EGFR (Homo sapiens, UniProt P00533, L861Q); concentration not given; reference: untreated control): 83%
O=C(O)c1ccc(Nc2ncc3c(n2)-c2ccc(Cl)cc2C(c2c(F)cccc2F)=NC3)cc1  remaining activity (human PKBγ(h); kinase activity; 1 µM): 110%
C=CC(=O)N1CCC([C@@H]2CCNc3c(C(N)=O)c(-c4ccc(Oc5ccccc5)cc4)nn32)CC1  remaining activity (PKN3 (Homo sapiens, UniProt Q6P5Z2); kinase activity, inhibitor, HotSpot radiometric; 100 nM, added: ATP 10 µM): 88 ± 1.3%
FC(F)c1nc2ccccc2n1-c1nc(N2CCOCC2)nc(N2CCOCC2)n1  remaining activity (AMPK; enzyme activity; 10 µM): 92%
COc1cc(F)ccc1-c1ncnc(Nc2cccc(C[S@](C)(=N)=O)c2)n1  remaining activity (PRKG1 (Homo sapiens, UniProt Q13976); kinase activity; 10 µM, added: 10 µM ATP): 102%
COc1cc(N2CCN(C)CC2)ccc1Nc1nc(N)n(C(=S)NCc2c(Cl)cccc2Cl)n1  remaining activity (OXSR1; enzyme activity; 10 µM; reference: control): 12%
CC#CC(=O)N1CCC[C@H]1c1nc(-c2ccc(C(=O)Nc3ccccn3)cc2)c2c(N)nccn12  remaining activity (IKBKE; kinase activity, inhibitor, HotSpot radiometric; 100 nM, added: ATP 10 µM): 106 ± 4.1%
C[C@H]1[C@H](OC(=O)CCC(=O)O)O[C@@H]2O[C@@]3(C)CC[C@H]4[C@H](C)CC[C@@H]1[C@@]24OO3  remaining activity (Non-structural polyprotein pORF1, helicase domain (Hepatitis E virus genotype 1, UniProt P33424); ATPase activity, inhibitor, colorimetric; 19.5 µM, preincubation 30 min, added: ATP 100 µM; reference: untreated): 75.3%
COc1cc(Cl)c(C(=O)N[C@@H](CN[C@H]2CC[C@@H](N)CC2)Cc2ccc(C#N)cc2)cc1-c1ccc(CN[C@H](C)c2ccc(C)cc2)o1  remaining activity (TRPM7; enzyme activity, KinaseProfiler panel; 1 µM): 106%
NC/C(=C\F)COc1cccc(Cn2c(=S)[nH]c(=O)c3[nH]cnc32)c1  remaining activity (Eosinophil peroxidase (Homo sapiens, UniProt P11678); H2O2 electrode; 10 µM; reference: control): 81% and 84.3% and 107%
O=C(NC1CCC1)c1ccc2nc(-c3cccc(NS(=O)(=O)NCCN4CCCCC4)c3)cn2c1  remaining activity (TGFBR1; enzyme activity; 10 µM): 100%
CC(C)OCCn1c(=S)[nH]c(=O)c2[nH]ccc21  remaining activity (MPO; chlorination activity; 2.5 µM, 0.1 h, added: iodide, TMB): 17.7%
COc1cc(Nc2ncc3c(n2)-c2ccc(Cl)cc2C(c2c(F)cccc2OC)=NC3)ccc1C(=O)O  remaining activity (ROCK1; kinase activity; 1 µM): 97%
